# Measurements of several laboratories.
# Lines come from different studies, so protocols differ. ± marks the error that the study gave.
Structure (SMILES),test,system,setting,scale,endpoint,result
COc1ccnc(C(=O)NCC(=O)O)c1O,soil adsorption,clay loam soil,"pH 7.2, organic carbon 4.4 %",,Freundlich coefficient KF,6.99 mL/g
Cl.[2H]C([2H])([2H])CC(=O)c1cnc(NC(=O)C2CC2)cc1Nc1cccc(-c2ncn(C([2H])([2H])[2H])n2)c1OC,geometric mean,human,"oral, 10 mg single dose, fasted, liquid",,AUC(0-inf),816 ng·h/mL
N#Cc1ccc2c(c1)[C@H]1CCCN(C(=O)c3ccc4[nH]cnc4c3)[C@H]1C2,,human females,"10 mg, day 15",,SHBG level,28.6 nmol/L
CC(C)(C(=O)N1CCOc2c(C#N)cncc2C1)C(F)F,refers to: blood and lymphatic disorders,"human, both sexes","oral, 20 mg twice daily, 14 days, multiple ascending dose",,subjects with TEAE,0%
O=C(OC(C(F)(F)F)C(F)(F)F)N1CCN(Cc2cccc(Oc3ccccc3)c2)CC1,PET blocking study,"rhesus monkey, brain OCC","0.01 mg/kg, compound pretreatment, with: [18F]T-401 tracer",,k2,0.038 min⁻¹
CC(C)[C@@H](CS(=O)(=O)C(C)C)N1C(=O)[C@@](C)(CC(=O)O)C[C@H](c2cccc(Cl)c2)[C@H]1c1ccc(Cl)cc1,,"FVB Abcb1a/b-/-Abcg2-/- mice, plasma","intravenous, 20 mg/kg",,volume of distribution,0.732 L/kg
O=C(COc1ccc(Cl)cc1)NC12CC(c3nnc([C@H]4C[C@@H](OC(F)(F)F)C4)o3)(C1)C2,refers to: Headache,human,28 (unit not given),,adverse event incidence,36.8%
COc1ccc([C@@H](O)c2cc(-c3ncnc4cc(N5CCOCC5)ccc34)c(F)cc2Cl)nn1,,locally advanced rectal cancer patients,"150 mg, with: capecitabine and radiotherapy",,asthenia TEAE incidence,17%
O=S(=O)(Nc1ccc(-c2cnco2)cc1)c1cccc(Cl)c1O,"colloidal aggregate formation, dynamic light scattering",50 mM potassium phosphate buffer,"200 µM, pH 7.0, 1% DMSO",higher = more aggregation,DLS scattered light intensity,702000 counts/s
OCCOCc1ccc(-c2noc(-c3ccc(OCC[18F])c(C(F)(F)F)c3)n2)cc1,,"Macaca mulatta, liver",,,liver uptake,35 to 38 % injected dose
NC1(C(=O)N[C@@H](CCO)c2ccc(Cl)cc2)CCN(c2nc[nH]c3nccc2-3)CC1,,metastatic CRPC patients,"320 mg b.i.d., any grade, treatment-related, with: enzalutamide 160 mg daily",,incidence of white blood cell decreased,0%
CC(CNS(=O)(=O)c1cnn(C)c1C(=O)O)c1c(Cl)cccc1Cl (stereo not shown),"colloidal aggregate formation, dynamic light scattering",50 mM potassium phosphate buffer,"200 µM, pH 7.0, 1% DMSO",higher = more aggregation,DLS scattered light intensity,509000 counts/s
Cc1cc(Nc2ncnc3ccc(NC4=NC(C)(C)CO4)cc23)ccc1Oc1ccn2ncnc2c1,,"human, plasma","oral, 300 mg, day 1, single dose alone",,"half-life, mean",7.98 h
CCOc1c([C@H](C)n2nc(C)c3c(N)ncnc32)cc(Cl)c(F)c1[C@@H]1CNC(=O)C1,,rat plasma,"5 ng/mL, 3 weeks, -80 °C, frozen storage",relative to: nominal concentration,stability relative error,7.9%
COC(=O)N[C@H](C(=O)N1CCC[C@H]1c1ncc(-c2cc(F)c3c(c2)O[C@@H](c2cnc(C4CC4)s2)n2c-3cc3cc(-c4cnc([C@@H]5CCCN5C(=O)[C@@H](NC(=O)OC)C(C)C)[nH]4)ccc32)[nH]1)C(C)C,,healthy adult humans,"oral, dose not given",relative to: low-fat meal over fasted,Ctrough increase,~44%
CCCCOC(=O)N1CCN(C(=O)[C@H](CP(=O)(O)O)NC(=O)c2cc(N3CC[C@H](OC)C3)nc(-c3ccccc3)n2)CC1,,human,"subcutaneous, 8 mg, 24 h post-dose",relative to: baseline,change in heart rate,0.9 ± 8.6 beats/min
Nc1ccn([C@@H]2O[C@H](CO)[C@@H](O)C2(F)F)c(=O)n1,refers to: dFdU,"human, plasma","intravenous, 800 mg/m^2, with: before paricalcitol",,"Tmax, mean",1.09 h
C=CC(=O)Nc1cc(Nc2nccc(-c3cn(C)c4ccccc34)n2)c(OC)cc1N(C)CCN(C)C,storage stability,human dried blood spot,"10 d, -80 °C, MQC level",,recovery,87.4%
C=CC(=O)N(C)CCOc1c(N)ncnc1-c1cc(F)cc(NC(=O)c2ccc(C3CC3)cc2F)c1C,,"human, plasma","oral, 15 mg single dose",,AUC,25.1 ng·h/mL
Fc1ccc([C@@H]2CCNC[C@H]2COc2ccc3c(c2)OCO3)cc1,,"human, all CYP2D6 genotypes, plasma","oral, 20 mg, steady state",,peak-trough fluctuation,56%
Cc1nc(S(=O)(=O)Nc2cccc(-n3nn[nH]c3=O)c2)c(Br)n1C,"colloidal aggregate formation, dynamic light scattering",50 mM potassium phosphate buffer,"200 µM, pH 7.0, 1% DMSO",higher = more aggregation,DLS scattered light intensity,671000 counts/s
Cc1nc(-c2ccc(OCC(C)C)c(C#N)c2)sc1C(=O)O,,"human, plasma","oral, 40 mg, with: verinurad 5 mg",relative to: test over reference,geometric mean ratio Cmax,76.1
O=C(O)CCC(=O)O.[2H]C([2H])([2H])Oc1cc(C)c2[nH]ccc2c1CN1CC[C@@H](C2CC2)C[C@H]1c1ccc(C(=O)O)cc1,,healthy Chinese subjects,"100 mg, single ascending dose",,TEAE hyponatremia,0%
Cc1ccc([C@@H]2O[C@H](CO)[C@@H](O)[C@H](O)[C@H]2O)cc1Cc1ccc(-c2ccc(F)cc2)s1,,Japanese type 2 diabetes patients,"100 mg, day 17, 24 h urine collection",relative to: baseline,urinary chloride excretion change,-70.2 mEq
Cn1cc([C@H]2C[C@H]3CSC(N)=N[C@@]3(c3ccc(F)cc3F)CO2)cn1,,"male 129/SVE mouse, brain","subcutaneous, 50 mg/kg, 18 h",,brain concentration,187 nM
O=C(O)c1occc1S(=O)(=O)NCC1CC(c2ccccc2)C1 (stereo not shown),"colloidal aggregate formation, dynamic light scattering",50 mM potassium phosphate buffer,"200 µM, pH 7.0, 1% DMSO",higher = more aggregation,DLS scattered light intensity,445000 counts/s
CNCCOC12CC3(C)CC(C)(CC(Cn4ncc(-c5ccc(N6CCc7cccc(C(=O)Nc8nc9ccccc9s8)c7C6)nc5C(=O)O)c4C)(C3)C1)C2,,"beagle dog, male, anaesthetised","intravenous bolus, 0.03 mg/kg, 75 min",relative to: baseline,dP/dt at 50 change,-3%
O=c1[nH]c(=O)n([C@H]2C[C@H](O)[C@@H](CO)O2)cc1CCCCC[18F],,"tumour-bearing nude mice, blood","intravenous, dose not given, 2 h",,blood activity,0.27 ± 0.2 %ID/g
CCO[C@H]1CCN(Cc2c(OC)cc(C)c3[nH]ccc23)[C@H](c2ccc(C(=O)O)cc2)C1,,"human healthy controls, plasma","oral, 200 mg single dose, geometric mean",,unbound Cmax,711 ng/mL
N#C[C@@]1(c2ccc3c(N)ncnn23)O[C@H](CO)[C@@H](O)[C@H]1O,,"beagle dog, male, plasma","oral, 6.5 mg/kg, capsule",,MRT(0-inf),4.19 h
CCN1/C(=C/C(C)=O)Sc2ccc(F)cc21,,cynomolgus monkey,"oral, 10 mg/kg, 0.5 h post-dose",relative to: pre-dose,QTc interval change,98.7 ± 3.4%
NC[C@@]1(CC(=O)O)[C@@H]2CC[C@H]3C[C@@H]2[C@@H]1C3,,"human, severe renal impairment, plasma",geometric mean,,unbound apparent clearance,3.34 L/h
CO[C@H]1CC[C@H](N2C(=O)CNc3ncc(-c4ccc(C(C)(C)O)nc4)nc32)CC1,,"patients, plasma","15 mg, day -1, geometric mean",,CL/F,39.7 L/h
COc1ccc(-n2nc(C(N)=O)c3c2C(=O)N(c2ccc(N4CCCCC4=O)cc2)CC3)cc1,population PK model (NONMEM),"human, plasma","oral, final model",,CL renal/F,24.5 ± 2.13 mL/min
CCOc1c([C@H](C)n2nc(C)c3c(N)ncnc32)cc(Cl)c(F)c1[C@@H]1CNC(=O)C1,,"human, B-cell malignancies, plasma","oral, 20 mg, day 15",,Cmax,1720 nM
Cc1ccc(Sc2ccccc2N2CCNCC2)c(C)c1,,healthy adult men,"oral, 10 mg single dose, treatment-emergent adverse events",,pyrexia incidence,0%
CC(=O)N(C)C1CCN(c2cc(F)cc(NC(=O)c3cc4c(F)ccc(C)c4[nH]3)c2)C1 (stereo not shown),,CD1 mouse,"intravenous, 1 mg/kg",,terminal half-life,0.7 h
CCC1(C)CC(OC(=O)CSc2nnc(N)[nH]2)C2(C)C(C)CCC3(CCC(=O)C32)C(C)C1O (stereo not shown),haemolysis,sheep erythrocytes,"1 h, pH 7.5",,HC50,> 128 µg/mL
FC(F)(F)c1ccc(CNc2ccc(Cc3c[nH]c4ncc(Cl)cc34)cn2)cn1,,patients with advanced solid tumours,"oral, 1000 mg/day, non-TGCT cohort, grade ≥3",,dry mouth incidence,0%
O=C(Nc1nc2cccc(-c3ccc(CN4CCS(=O)(=O)CC4)cc3)n2n1)C1CC1,refers to: hypertension,human rheumatoid arthritis patients,"oral, 200 mg once daily, 4 weeks, regardless of relatedness",,treatment-emergent adverse events,0%
CN1C[C@H](COc2nccc3c(NCc4ccco4)cc(Cl)nc23)OC1=O,,"rabbit NZW female, isolated Langendorff heart","3 µM, 15 min",,QRS interval,30 ms
NC(=O)N1c2ccccc2C=Cc2ccccc21,refers to: gastrointestinal disorders (SOC),human male,"oral, dose not given, CTCAE on-treatment AEs",,adverse events incidence,40%
CC(C)Cc1ccc(CNS(=O)(=O)c2ccccc2C(=O)O)cc1,"colloidal aggregate formation, dynamic light scattering",50 mM potassium phosphate buffer,"200 µM, pH 7.0, 1% DMSO",higher = more aggregation,DLS scattered light intensity,559000 counts/s
COc1ccnc(C(=O)NC(CO)C(=O)O)c1O (racemic),soil adsorption,clay loam soil,"pH 7.2, organic carbon 4.4 %",,Freundlich coefficient KF,6.07 mL/g
CCCCC1=NC2(CCCC2)C(=O)N1Cc1ccc(-c2ccccc2S(=O)(=O)Nc2noc(C)c2C)c(COCC)c1,,"healthy adult volunteers, plasma","oral, 1600 mg, 14 days repeated dosing, fasted, crushed tablet",,AUC(0-inf),102000 ng·h/mL
Cc1cnc(N2CC3(CCOCC3)C2)c(C(=O)Nc2ccc(C(=O)N3CCc4cc(C(=O)Nc5c(C)cccc5F)sc4-c4ccccc43)cc2)c1,,"human, nasal epithelial lining fluid","inhaled, 5 mg twice daily, 72 h",,concentration,18000 ng/mL
C[C@]1(Cn2ccnn2)[C@H](C(=O)O)N2C(=O)C[C@H]2S1(=O)=O,,human whole blood,"concentration not given, 48 h, 4 °C",,deviation from nominal concentration,4.1%
CCCC1CCC(c2ccc(-c3ccc(CC)cc3)cc2)CC1 (stereo not shown),refers to: compound,"human pregnant women, male fetuses, cord serum","dose not given, paired maternal-cord samples, mean",,concentration,1.34 ng/mL
Cc1noc(C)c1Cn1cc(N2C(=O)CN(Cc3cccc(O)c3)C2=O)cn1,,pooled rat liver microsomes Sprague-Dawley,"50 µM, 10 min, pH 7.4",,remaining parent,95 % peak area
COc1ccc(-c2csc(CNS(=O)(=O)c3cnn(C)c3C(=O)O)n2)cc1,"colloidal aggregate formation, dynamic light scattering",50 mM potassium phosphate buffer,"200 µM, pH 7.0, 1% DMSO",higher = more aggregation,DLS scattered light intensity,411000 counts/s
O=C1NCCc2nc(OCc3cccc(F)c3)ccc21,refers to: Lacrimation,Sprague-Dawley rat male,"oral, 100 mg/kg, 4 h",direction not given,Irwin test score,0
CN(C)C(=N)N=C(N)N,refers to: dizziness,healthy men,"oral, dose not given, 8 days, treatment-emergent, crossover trial",,subjects with adverse event,4.5%
CC[C@H](C)[C@H](NC(=O)[C@H](Cc1ccccc1)NC(=O)[C@H](CCC(=O)O)NC(=O)[C@H](CCCCNC(=O)COCCOCCNC(=O)COCCOCCNC(=O)CC[C@H](NC(=O)CCCCCCCCCCCCCCCCC(=O)O)C(=O)O)NC(=O)[C@H](C)NC(=O)[C@H](C)NC(=O)[C@H](CCC(N)=O)NC(=O)CNC(=O)[C@H](CCC(=O)O)NC(=O)[C@H](CC(C)C)NC(=O)[C@H](Cc1ccc(O)cc1)NC(=O)[C@H](CO)NC(=O)[C@H](CO)NC(=O)[C@@H](NC(=O)[C@H](CC(=O)O)NC(=O)[C@H](CO)NC(=O)[C@@H](NC(=O)[C@H](Cc1ccccc1)NC(=O)[C@@H](NC(=O)CNC(=O)[C@H](CCC(=O)O)NC(=O)C(C)(C)NC(=O)[C@@H](N)Cc1cnc[nH]1)[C@@H](C)O)[C@@H](C)O)C(C)C)C(=O)N[C@@H](C)C(=O)N[C@@H](Cc1c[nH]c2ccccc12)C(=O)N[C@@H](CC(C)C)C(=O)N[C@H](C(=O)N[C@@H](CCCNC(=N)N)C(=O)NCC(=O)N[C@@H](CCCNC(=N)N)C(=O)NCC(=O)O)C(C)C,"QT interval corrected for heart rate, 12-lead Holter ECG",healthy human subjects,"subcutaneous, 1.5 mg once weekly, 24 h post-dose, steady state","relative to: placebo, time-matched baseline",placebo-subtracted change in QTcI,-4.6 ms
CCc1cc(C(=O)NC)c2nccc(N3CCc4c(cc(Cn5ccnc5)cc4-c4cn(C)nc4C(F)(F)F)C3=O)c2c1,,Sprague Dawley rats,"oral, 100 mg/kg twice daily, 7 days",relative to: vehicle,blood HDW change,13%
O=C(c1cccnc1-c1ccncc1)N1CCC(O)(Cc2ccccc2)CC1,,"healthy Japanese adults, plasma","oral, 100 mg twice daily, day 7",,CL/F,552 L/h
